{"data": "Published values of several laboratories", "T1": "ATRX ADD domain 167-289 K251R/F284Y (Homo sapiens); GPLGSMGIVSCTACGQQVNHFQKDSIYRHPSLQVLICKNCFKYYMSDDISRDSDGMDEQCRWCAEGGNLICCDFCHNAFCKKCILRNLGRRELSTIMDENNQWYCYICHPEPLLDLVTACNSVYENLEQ", "B1": "BRAF kinase 442-724 V600E (Homo sapiens, UniProt P15056); sequence looked up; chain GRRDSSDDWEIPDGQITVGQRIGSGSFGTVYKGKWHGDVAVKMLNVTAPTPQQLQAFKNEVGVLRKTRHVNILLFMGYSTKPQLAIVTQWCEGSSLYHHLHIIETKFEMIKLIDIARQTAQGMDYLHAKSIIHRDLKSNNIFLHEDLTVKIGDFGLATEKSRWSGSHQFEQLSGSILWMAPEVIRMQDKNPYSFQSDVYAFGIVLYELMTGQLPYSNINNRDQIIFMVGRGYLSPDLSKVRSNCPKAMKRLMAECLKKKRDERPLFPQILASIELLARSLPKI", "B2": "PLXNB1 RBD 1746-1852 (Homo sapiens, UniProt O43157); sequence looked up; chain YRPLTLNALLAVGPGAGEAQGVPVKVLDCDTISQAKEKMLDQLYKGVPLTQRPDPRTLDVEWRSGVAGHLILSDEDVTSEVQGLWRRLNTLQHYKVPDGATVALVPC", "B3": "Pigr 19-135 (Mus musculus, UniProt O70570); sequence looked up; chain KSPIFGPQEVSSIEGDSVSITCYYPDTSVNRHTRKYWCRQGASGMCTTLISSNGYLSKEYSGRANLINFPENNTFVINIEQLTQDDTGSYKCGLGTSNRGLSFDVSLEVSQVPELPS", "B4": "C1S 438-688 S632A (Homo sapiens, UniProt P09871); chain IIGGSDADIKNFPWQVFFDNPWAGGALINEYWVLTAAHVVEGNREPTMYVGSTSVQTSRLAKSKMLTPEHVFIHPGWKLLEVPEGRTNFDNDIALVRLKDPVKMGPTVSPICLPGTSSDYNLMDGDLGLISGWGRTEKRDRAVRLKAARLPVAPLRKCKEVKVEKPTADAEAYVFTPNMICAGGEKGMDSCKGDAGGAFAVQDPNDKTKFYAAGLVSWGPQCGTYGLYTRVKNYVDWIMKTMQENSTPRED", "note": "Each line is one published result; not all experiments were run side by side. ± gives the spread as reported.", "chain of UniProt P0ADI4 (whole entry, looked up)": "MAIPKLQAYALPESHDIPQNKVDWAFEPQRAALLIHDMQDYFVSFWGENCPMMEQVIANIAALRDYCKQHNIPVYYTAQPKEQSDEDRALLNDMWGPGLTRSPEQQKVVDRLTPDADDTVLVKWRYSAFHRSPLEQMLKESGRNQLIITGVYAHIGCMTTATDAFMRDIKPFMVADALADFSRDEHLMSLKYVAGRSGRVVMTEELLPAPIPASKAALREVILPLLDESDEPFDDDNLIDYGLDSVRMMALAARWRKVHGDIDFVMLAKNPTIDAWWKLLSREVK", "chain of UniProt P11454 (whole entry, looked up)": "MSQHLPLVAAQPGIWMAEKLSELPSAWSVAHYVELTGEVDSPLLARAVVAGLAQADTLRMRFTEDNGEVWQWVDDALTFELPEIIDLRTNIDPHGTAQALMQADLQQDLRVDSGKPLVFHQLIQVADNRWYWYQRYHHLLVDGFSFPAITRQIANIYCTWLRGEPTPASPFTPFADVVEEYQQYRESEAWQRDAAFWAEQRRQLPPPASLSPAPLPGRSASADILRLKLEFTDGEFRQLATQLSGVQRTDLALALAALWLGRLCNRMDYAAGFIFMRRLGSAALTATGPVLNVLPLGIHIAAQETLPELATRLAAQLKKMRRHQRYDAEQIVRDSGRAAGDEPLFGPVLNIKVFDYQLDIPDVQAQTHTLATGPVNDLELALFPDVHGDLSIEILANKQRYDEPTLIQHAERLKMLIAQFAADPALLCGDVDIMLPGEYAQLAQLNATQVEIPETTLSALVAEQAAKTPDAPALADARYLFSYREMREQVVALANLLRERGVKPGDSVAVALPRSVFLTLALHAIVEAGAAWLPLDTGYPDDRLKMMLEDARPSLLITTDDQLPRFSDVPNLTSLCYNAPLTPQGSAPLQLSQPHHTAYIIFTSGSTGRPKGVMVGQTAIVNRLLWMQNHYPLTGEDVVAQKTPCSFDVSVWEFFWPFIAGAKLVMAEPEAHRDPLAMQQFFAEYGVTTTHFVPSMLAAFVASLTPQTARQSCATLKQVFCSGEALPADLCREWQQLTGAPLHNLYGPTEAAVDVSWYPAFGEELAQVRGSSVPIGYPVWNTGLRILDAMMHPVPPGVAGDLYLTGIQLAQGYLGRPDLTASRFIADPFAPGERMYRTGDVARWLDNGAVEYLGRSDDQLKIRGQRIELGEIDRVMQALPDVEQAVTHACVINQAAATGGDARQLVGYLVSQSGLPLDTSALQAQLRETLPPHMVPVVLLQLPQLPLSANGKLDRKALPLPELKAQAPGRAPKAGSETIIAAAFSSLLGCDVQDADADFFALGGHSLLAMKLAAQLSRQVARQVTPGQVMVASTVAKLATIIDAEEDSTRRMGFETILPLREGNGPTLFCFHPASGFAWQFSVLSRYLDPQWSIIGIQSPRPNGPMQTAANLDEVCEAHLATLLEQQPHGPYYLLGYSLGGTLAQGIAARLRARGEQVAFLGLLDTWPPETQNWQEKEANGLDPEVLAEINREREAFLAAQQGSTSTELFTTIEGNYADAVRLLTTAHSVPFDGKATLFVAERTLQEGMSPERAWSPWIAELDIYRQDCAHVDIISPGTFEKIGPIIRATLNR", "chain of UniProt P05155 (whole entry, unmodified, looked up)": "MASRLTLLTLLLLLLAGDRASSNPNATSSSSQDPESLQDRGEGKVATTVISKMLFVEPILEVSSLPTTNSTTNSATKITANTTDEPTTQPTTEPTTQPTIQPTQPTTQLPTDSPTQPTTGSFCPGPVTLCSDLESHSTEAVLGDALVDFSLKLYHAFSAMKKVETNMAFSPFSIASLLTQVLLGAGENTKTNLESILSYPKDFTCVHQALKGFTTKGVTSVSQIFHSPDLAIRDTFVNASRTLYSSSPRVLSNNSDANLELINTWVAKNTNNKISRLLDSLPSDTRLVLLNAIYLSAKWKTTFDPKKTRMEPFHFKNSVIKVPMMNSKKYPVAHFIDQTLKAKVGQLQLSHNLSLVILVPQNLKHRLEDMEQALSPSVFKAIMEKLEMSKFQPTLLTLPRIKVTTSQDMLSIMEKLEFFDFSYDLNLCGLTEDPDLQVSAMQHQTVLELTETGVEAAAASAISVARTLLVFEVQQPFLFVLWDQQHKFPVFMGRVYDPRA", "chain of UniProt P52198 (whole entry, looked up)": "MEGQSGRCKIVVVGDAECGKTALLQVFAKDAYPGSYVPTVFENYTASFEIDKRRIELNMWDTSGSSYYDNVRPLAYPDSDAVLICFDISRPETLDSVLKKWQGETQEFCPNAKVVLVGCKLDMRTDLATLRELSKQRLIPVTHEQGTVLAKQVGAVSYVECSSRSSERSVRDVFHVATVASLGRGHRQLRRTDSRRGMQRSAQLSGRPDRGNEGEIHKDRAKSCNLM", "chain of UniProt O35295 (whole entry, looked up)": "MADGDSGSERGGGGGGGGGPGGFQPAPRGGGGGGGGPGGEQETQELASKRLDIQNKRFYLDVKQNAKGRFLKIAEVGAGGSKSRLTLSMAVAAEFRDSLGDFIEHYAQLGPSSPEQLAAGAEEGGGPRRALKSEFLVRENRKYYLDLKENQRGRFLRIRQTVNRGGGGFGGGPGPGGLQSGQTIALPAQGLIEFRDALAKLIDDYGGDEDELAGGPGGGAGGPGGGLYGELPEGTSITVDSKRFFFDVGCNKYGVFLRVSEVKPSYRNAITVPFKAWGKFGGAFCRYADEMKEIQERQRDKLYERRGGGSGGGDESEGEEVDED", "chain of UniProt Q9BQ39 (whole entry, looked up)": "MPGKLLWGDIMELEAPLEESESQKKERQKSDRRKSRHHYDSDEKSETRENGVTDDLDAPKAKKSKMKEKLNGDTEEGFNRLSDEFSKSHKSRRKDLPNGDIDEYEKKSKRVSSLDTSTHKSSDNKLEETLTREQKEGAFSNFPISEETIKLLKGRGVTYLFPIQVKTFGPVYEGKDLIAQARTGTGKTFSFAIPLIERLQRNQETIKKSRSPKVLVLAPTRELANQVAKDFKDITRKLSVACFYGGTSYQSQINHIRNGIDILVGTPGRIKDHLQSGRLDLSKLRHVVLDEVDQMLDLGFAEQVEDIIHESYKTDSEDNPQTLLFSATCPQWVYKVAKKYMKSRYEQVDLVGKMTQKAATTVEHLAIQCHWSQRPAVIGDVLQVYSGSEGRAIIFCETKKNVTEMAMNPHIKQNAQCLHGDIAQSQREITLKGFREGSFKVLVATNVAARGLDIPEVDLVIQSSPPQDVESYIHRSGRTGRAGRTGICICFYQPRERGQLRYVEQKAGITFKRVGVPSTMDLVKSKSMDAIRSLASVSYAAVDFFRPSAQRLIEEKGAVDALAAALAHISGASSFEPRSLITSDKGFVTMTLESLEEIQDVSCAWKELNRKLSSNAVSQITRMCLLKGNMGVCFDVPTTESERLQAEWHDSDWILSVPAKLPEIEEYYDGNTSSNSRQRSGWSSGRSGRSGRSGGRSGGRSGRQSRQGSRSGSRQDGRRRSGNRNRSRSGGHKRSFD", "chain of UniProt O95793 (whole entry, looked up)": "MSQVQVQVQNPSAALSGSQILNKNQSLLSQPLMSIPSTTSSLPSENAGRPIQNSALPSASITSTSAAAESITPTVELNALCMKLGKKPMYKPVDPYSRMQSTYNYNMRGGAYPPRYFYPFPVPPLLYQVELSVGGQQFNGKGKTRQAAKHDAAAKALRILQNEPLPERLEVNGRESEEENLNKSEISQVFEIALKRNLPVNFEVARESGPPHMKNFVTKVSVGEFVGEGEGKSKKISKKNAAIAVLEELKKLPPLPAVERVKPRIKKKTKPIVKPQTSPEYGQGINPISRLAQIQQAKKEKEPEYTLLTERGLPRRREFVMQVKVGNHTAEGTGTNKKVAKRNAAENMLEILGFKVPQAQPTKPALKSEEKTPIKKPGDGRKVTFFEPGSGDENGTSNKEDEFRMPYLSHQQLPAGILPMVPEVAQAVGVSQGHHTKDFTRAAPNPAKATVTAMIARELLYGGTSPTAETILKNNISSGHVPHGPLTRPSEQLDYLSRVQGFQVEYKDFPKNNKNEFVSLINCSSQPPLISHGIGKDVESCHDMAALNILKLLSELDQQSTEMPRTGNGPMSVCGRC", "chain of UniProt P62960 (whole entry, looked up)": "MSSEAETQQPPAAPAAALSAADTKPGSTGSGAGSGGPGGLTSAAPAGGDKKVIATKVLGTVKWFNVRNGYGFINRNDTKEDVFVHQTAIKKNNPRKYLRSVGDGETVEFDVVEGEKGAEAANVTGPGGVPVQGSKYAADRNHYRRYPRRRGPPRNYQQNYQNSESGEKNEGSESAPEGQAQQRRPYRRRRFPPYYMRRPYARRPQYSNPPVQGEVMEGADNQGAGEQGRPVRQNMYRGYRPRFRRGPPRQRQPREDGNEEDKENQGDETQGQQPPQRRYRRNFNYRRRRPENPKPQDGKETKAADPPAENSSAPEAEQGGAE"}
{"Molecule": "STAU1 (Homo sapiens, UniProt O95793)", "tested on": "DDX50 (Homo sapiens, UniProt Q9BQ39)", "test": "MST", "endpoint": "Kd", "result": "446 nM"}
{"Molecule": "VMRLQSETSV", "tested on": "human MAGI1-2/6 PDZ construct (MBP fusion)", "test": "automated holdup", "system": "peptide, crude extract", "conditions": "concentration not given, corrected by standard peak, unit not given", "scale": "baseline: biotin control resin, higher = stronger binding", "endpoint": "binding intensity", "result": 0.473}
{"Molecule": "entB, 2,3-dihydroxybenzoyl thioester on PCP (Escherichia coli, UniProt P0ADI4)", "tested on": "EntF holo, phosphopantetheine (Escherichia coli, UniProt P11454)", "test": "SPR", "endpoint": "Kd", "result": "416 nM"}
{"Molecule": "B1 (BRAF kinase 442-724 V600E)", "tested on": "MAP2K1 (Homo sapiens, UniProt Q02750)", "test": "BLI", "endpoint": "Kd", "result": "56.4 ± 5.54 nM"}
{"Molecule": "B2 (PLXNB1 RBD 1746-1852)", "tested on": "RND2 1-227 (Homo sapiens, UniProt P52198)", "test": "SPR", "endpoint": "Kd", "result": "1390 ± 390 nM"}
{"Molecule": "Ybx1 (Mus musculus, UniProt P62960)", "tested on": "Purb (Mus musculus, UniProt O35295)", "test": "ELISA", "endpoint": "Kd", "result": "31.4 ± 3.7 nM"}
{"Molecule": "CALLLSAPRR (GOT2 (Gallus gallus); fluorescein label)", "tested on": "HSPA9 mature L450A (Homo sapiens, UniProt P38646)", "test": "FP", "system": "peptide", "endpoint": "Kd", "result": "26600 nM"}
{"Molecule": "PRPRPRPRPRPRPRPRPRPRPRPRPRPRPRPRPRPRPRPR ((PR)20 20 repeats; TAMRA label N-terminal)", "tested on": "FUS 267-526 (Homo sapiens, UniProt P35637)", "test": "fluorescence polarisation", "system": "peptide", "endpoint": "Kd", "result": "102 ± 13.1 nM"}
{"Molecule": "FGB dimer (Homo sapiens)", "tested on": "CDH2 EC5 440-551 (Homo sapiens)", "test": "SPR", "conditions": "Langmuir fit, together with: CaCl2", "endpoint": "Kd", "result": "30.3 nM"}
{"Molecule": "ARTKQTARKSTGGKAY (H3C1 1-15; K4me3)", "tested on": "T1, ATRX ADD domain 167-289 K251R/F284Y (Homo sapiens)", "test": "ITC", "system": "peptide", "endpoint": "Kd", "result": "93500 nM"}
{"Molecule": "B3 (Pigr 19-135)", "tested on": "IgA Fc/J chain CH2-CH3 domains, dimeric 113-344 (Mus musculus)", "test": "SPR", "endpoint": "Kd", "result": "374 nM"}
{"Molecule": "SVWLRKETRV", "tested on": "human MAGI1-3/6 PDZ construct (MBP fusion)", "test": "automated holdup", "system": "peptide, purified PDZ protein", "conditions": "concentration not given, unit not given", "scale": "baseline: biotin control resin, higher = stronger binding", "endpoint": "binding intensity", "result": 0.355}
{"Molecule": "B4 (C1S 438-688 S632A)", "tested on": "SERPING1 111-500 H334A/Q338A (Homo sapiens, UniProt P05155)", "test": "SPR", "conditions": "together with: Ca2+", "endpoint": "Kd", "result": "7300 nM"}
{"note": "A few entries again:"}
{"Molecule": "STAU1 (Homo sapiens, UniProt O95793)", "tested on": "DDX50 (Homo sapiens, UniProt Q9BQ39)", "test": "MST", "endpoint": "Kd", "result": "446 nM"}
